Published values pooled from the literature.
A part holds a random share of what one study measured. Positions count from the first letter of the parent shown.

Study 1
Target: CCNB2, cyclin fold, Cln2 fusion (human)
Method: yeast growth competition, sequencing
Sample: yeast
Setting: strong parent motif
Relative to: not given
Direction: higher = stronger binding
Quantity: normalised enrichment score
Parent: E2F1 docking peptide (human); PPVKRRLDFETDH; partner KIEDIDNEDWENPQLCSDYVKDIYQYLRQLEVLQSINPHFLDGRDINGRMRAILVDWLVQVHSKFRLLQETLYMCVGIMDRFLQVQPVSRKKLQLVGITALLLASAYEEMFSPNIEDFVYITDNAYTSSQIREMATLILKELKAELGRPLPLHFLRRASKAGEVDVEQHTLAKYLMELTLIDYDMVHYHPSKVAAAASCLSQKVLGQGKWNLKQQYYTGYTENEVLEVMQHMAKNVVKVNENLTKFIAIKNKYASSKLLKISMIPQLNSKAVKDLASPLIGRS
PPVKRYLDFETDH [R6Y]: 2.32
PPVKRNLDFETDH [R6N]: 1.07
PPVKRRRDFETDH [L7R]: 0.178
PPVKRRLDFWTDH [E10W]: 2.47
PPVKVRLDFETDH [R5V]: 1.88
PPVKRRLDDETDH [F9D]: -0.0366
PDVKRRLDFETDH [P2D]: 3.47
PPVKRRSDFETDH [L7S]: 0.104
PPVKRRLDFEQDH [T11Q]: 3.94
PPVKRWLDFETDH [R6W]: 1.2
PPPKRRLDFETDH [V3P]: 0.908
PVVKRRLDFETDH [P2V]: 2.94
PPVKRDLDFETDH [R6D]: 0.286
PPVKRPLDFETDH [R6P]: -0.254
PPVGRRLDFETDH [K4G]: 0.932
PPVKRRLGFETDH [D8G]: 0.897
PPVKRRLDFRTDH [E10R]: 2.13
PPVKRRLDPETDH [F9P]: -0.145
PPVKRRLDFEHDH [T11H]: 4.03
PPVKRRLDVETDH [F9V]: 0.00863

Study 2
Target: CEP164, C-terminal peptide (human)
Method: DHFR complementation, deep sequencing
Sample: yeast
Setting: single substitutions, model-inferred values
Relative to: wild type
Direction: higher = weaker binding
Quantity: binding free energy change
Parent: PDZK1, PDZ domain 2 (human); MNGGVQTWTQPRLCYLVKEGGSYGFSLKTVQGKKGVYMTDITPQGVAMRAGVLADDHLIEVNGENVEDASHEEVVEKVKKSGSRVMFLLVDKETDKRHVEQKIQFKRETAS; partner HNRVKVYRF
I41T: 0.991 kcal/mol
T109P: -0.145 kcal/mol
R84F: 0.248 kcal/mol
Q44W: 0.00501 kcal/mol
V30T: -0.333 kcal/mol
E19N: 0.109 kcal/mol

Study 3
Target: Histone acetyltransferase KAT6A, winged helix 1, GST fusion (KAT6A, Homo sapiens, UniProt Q92794, residues 1-85)
Method: protein binding microarray
Form: double-stranded DNA, one strand shown
Sample: in vitro
Concentration: not given
Setting: 8-mer, flanks averaged, mean of 2 arrays, mostly near background
Relative to: not given
Direction: higher = stronger binding
Quantity: E-score
Construct (chain): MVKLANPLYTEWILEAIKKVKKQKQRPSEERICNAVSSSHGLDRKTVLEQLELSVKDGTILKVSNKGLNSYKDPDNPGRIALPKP
ACGCCTCG: 0.21
CTAATCGC: 0.184
AAACGTAT: 0.0123
GCGCAAGA: 0.225
CTAGCCTA: -0.0202
TCAACACA: -0.17
TAGGTCCA: -0.21
CTATCAGA: -0.0452
AAATTGCA: -0.23
GCAGGCCC: -0.0173
ATAAGCGC: 0.275
TCAGACAA: -0.152
AAAACAGG: -0.193
ATAGGCCC: 0.0611
AATTATTG: -0.162
CTTAGTCC: 0.00647
GGCTCCGA: -0.0204
CGTACGAA: 0.0926
AACACTGT: -0.0457
ACGAGGGA: -0.126
GTGTCACA: -0.0261

Study 4
Target: Interferon regulatory factor 3, full length, phosphomimetic (IRF3, Homo sapiens, UniProt Q14653, residues 1-427, S386D/S396D/S398D/S402D/T404D/S405D)
Sequence of UniProt Q14653 (whole entry, unmodified, looked up): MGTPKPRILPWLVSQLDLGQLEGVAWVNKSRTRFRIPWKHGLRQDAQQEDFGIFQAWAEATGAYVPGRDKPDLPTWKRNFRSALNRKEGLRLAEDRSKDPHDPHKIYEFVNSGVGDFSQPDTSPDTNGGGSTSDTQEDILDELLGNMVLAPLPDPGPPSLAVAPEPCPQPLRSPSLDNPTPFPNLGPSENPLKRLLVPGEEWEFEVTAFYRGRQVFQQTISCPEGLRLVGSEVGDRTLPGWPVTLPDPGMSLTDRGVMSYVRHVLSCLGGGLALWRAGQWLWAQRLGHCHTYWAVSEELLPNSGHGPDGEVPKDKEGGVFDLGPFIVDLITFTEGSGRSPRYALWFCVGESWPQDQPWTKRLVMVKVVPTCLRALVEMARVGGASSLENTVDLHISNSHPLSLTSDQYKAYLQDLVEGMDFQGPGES
Method: protein-binding microarray
Form: double-stranded DNA, one strand shown
Sample: in vitro
Concentration: 2540 nM top
Setting: 60-bp whole probe
With: salmon DNA 0.4 mg/ml
Relative to: random background probes
Direction: higher = stronger binding
Quantity: fitted relative affinity
All sequences stand within: GCCTAGCAC … GTCTTGATTCGCTTGACGCTGCTG
GCTCTCTTCTGCTTCCTCAGGTGCTAG: 1.2 z-score
TCACATACGAGTTTCCATTTGTGCTAG: 4.62 z-score
GACGGTATCGGGTATCTGGACGTGCTA: 1.46 z-score
GACGGACTGCACACTGGGGACGTGCTA: -0.516 z-score
TTAGGTTTCCTTTTCCTTCAGTGCTAG: 11.8 z-score
TTAGGACTGGGACGGGGTTAGTGCTAG: -0.702 z-score
GACGGTCTAGGTTTCGGGACGTGCTAG: 1.94 z-score
TTATCAATCATTTTCGTTTTGTGCTAG: 3.03 z-score
GACGGTCTCGGTATCTGGACGTGCTAG: 1.1 z-score
GGTTTTTTTTTAATTGAAATGTGCTAG: 2.31 z-score
TAACTAATATTAAATATGTAGTGCTAG: 0.326 z-score

Other studies, line by line
PhoQ, residues 284 288 289 292 302 303 SLSVQF — fold induction (PhoP, residues 12 14 15 18 19 HHYTI (Escherichia coli, UniProt P23836); Sort-seq, refers to: YFP reporter; E. coli; PhoQ-PhoP variant library, with: 10 µM Mg2+; relative to: high Mg2+ state, higher = stronger signaling): 7.67

For quick reference, copied from above (study 1):
PPVKRRLDVETDH [F9V]: 0.00863
PDVKRRLDFETDH [P2D]: 3.47
PPVKRDLDFETDH [R6D]: 0.286
PPVKRRLDFWTDH [E10W]: 2.47
PVVKRRLDFETDH [P2V]: 2.94
PPVKRRRDFETDH [L7R]: 0.178
PPVKRRLDDETDH [F9D]: -0.0366
PPVKRPLDFETDH [R6P]: -0.254
PPVKRRLGFETDH [D8G]: 0.897
